Measurements pooled from the literature.
Lines come from different studies, so protocols differ. Values joined by “and” are separate records of one study, mostly repeats; a detail may differ. ± gives the spread as reported.

SMILES | tested on | assay | system | setting | how to read | measurement | value
Cn1ncc2cc(-c3cncc(Cl)c3N3CCC4(CCNC4=O)CC3)ccc21 | LS174T | gene expression, microarray, refers to: RRM2 mRNA | – | concentration not given, 24 h | relative to: untreated cells | log2 fold change | -2.53
COc1cc2c(NC3CCN(C(C)C)CC3)cc(N3CCOCC3)nc2cc1OCCCN1CCCC1 | – | TMT quantitative proteomics, refers to: ENO1 | 5xFAD mice, hippocampus | dose not given | – | normalised protein abundance | 0.0512 and 0.0239 and 0.0477 and -0.00632 and -0.00935 and 0.0285 and 0.0158 and 0.0352
COC1OC(C)C(OS(=O)(=O)O)C(OC2OC(C)C(OS(=O)(=O)O)C(OC3OC(C)C(OS(=O)(=O)O)C(OC4OC(C)C(OS(=O)(=O)O)C(OC5OC(C)C(OS(=O)(=O)O)C(OC6OC(C)C(OS(=O)(=O)O)C(OS(=O)(=O)O)C6O)C5O)C4O)C3O)C2O)C1O (stereo not shown) | – | – | human plasma | 128 µg/mL | – | thrombin time | 10.4 ± 0.5 s
C=CC(=O)Nc1cccc(Cn2ncc3cnc(Nc4cnn(CCOC)c4)nc32)c1 | AAK1 human | binding, KINOMEscan | – | 100 nM | lower = stronger binding | percent of control | 7.6%
COc1cc(O)ccc1CCC(c1ccc(O)cc1)c1cc2c(c(C)c1O)OC(c1ccc(O)cc1)CC2 (mixture of isomers) | – | refers to: 15-HEPE | human whole blood | 0.3 µM, with: Escherichia coli | – | amount | 169 ± 71 pg/mL blood
CN1CCCNC(=O)c2cccc(c2)C(=O)NCCCN(C)CCCNc2cccc3c2C(=O)c2cccc(c2C3=O)NCCC1 | SAS | RNA-Seq, refers to: BCLAF1 mRNA | – | 1 µM, 6 h | relative to: untreated cells | log2 fold change | 0.61
COC1OC(C)C(OC2OC(C)C(OS(=O)(=O)O)C(OC3OC(C)C(OC4OC(C)C(OS(=O)(=O)O)C(OC5OC(C)C(OS(=O)(=O)O)C(OS(=O)(=O)O)C5O)C4O)C(OS(=O)(=O)O)C3O)C2O)C(OS(=O)(=O)O)C1O (stereo not shown) | – | – | human plasma | 128 µg/mL | – | thrombin time | 9.2 s
Nc1ncc(-c2cc(-c3cnn(CC(F)(F)F)c3)ncc2F)nc1C(=O)NC1CNCC(F)C1 (stereo not shown) | DDR2 | KINOMEscan | – | 1 µM | relative to: DMSO control | remaining binding | 100%
C=C(NC(=O)c1csc(-c2nc3c(cc2O)-c2nc(cs2)C(=O)NC(C(C)O)C(=O)NC(=C(C)OC)c2nc(cs2)C(=O)NC2c4nc(cs4)C(=O)NC(COC(=O)c4c5c6c(cccc6n4O)COC(=O)C(OC4CC(C)(O)C(N(C)C)C(C)O4)C2OC5)c2nc-3cs2)n1)C(N)=O (stereo not shown) | Streptococcus pneumoniae | – | -25, immunocompromised mice, lung infection | tid dosing | – | ED50 | 4.6 mg/kg
COC1CN([C@H]2CC[C@H]([C@@]3(C)Oc4c(Cl)cc(C(=O)NCc5c(SC)cc(C)[nH]c5=O)c(C)c4O3)CC2)C1 | – | RNA-seq, refers to: MARCHF3 mouse homolog | mouse, HT-1376 xenograft, whole blood | dose not given | relative to: vehicle | log2 fold change | 0.994
COC1OC(C)C(OC2OC(C)C(O)C(OC3OC(C)C(OC4OC(C)C(O)C(OC5OC(C)C(OC6OC(C)C(O)C(OS(=O)(=O)O)C6OS(=O)(=O)O)C(OS(=O)(=O)O)C5OS(=O)(=O)O)C4OS(=O)(=O)O)C(OS(=O)(=O)O)C3OS(=O)(=O)O)C2OS(=O)(=O)O)C(OS(=O)(=O)O)C1OS(=O)(=O)O (stereo not shown) | – | – | human plasma | 128 µg/mL | – | thrombin time | 10.3 ± 0.2 s
Cc1ncsc1-c1ccc(C(C)NC(=O)C2CC(O)CN2C(=O)C(NC(=O)CCCCCCCCCCN2CCCC(Nc3ncc(Cl)c(Nc4ccccc4S(=O)(=O)C(C)C)n3)C2)C(C)(C)C)cc1 (stereo not shown) | 22Rv1 | RNA-seq, refers to: ZFP90 mRNA | – | concentration not given | relative to: DMSO | log2 fold change | -1.71
COC1OC(C)C(OS(=O)(=O)O)C(OC2OC(C)C(OS(=O)(=O)O)C(OC3OC(C)C(OS(=O)(=O)O)C(OC4OC(C)C(OS(=O)(=O)O)C(OC5OC(C)C(OS(=O)(=O)O)C(OC6OC(C)C(OS(=O)(=O)O)C(OC7OC(C)C(OS(=O)(=O)O)C(OS(=O)(=O)O)C7O)C6O)C5O)C4O)C3O)C2O)C1O (stereo not shown) | – | – | human plasma | 128 µg/mL | – | thrombin time | 9.6 ± 0.6 s
c1ccc(-c2n[nH]cc2-c2ccnc3ccccc23)nc1 | KIN3 (Candida albicans) | kinase binding, MIB/MS competition | Candida albicans lysate | 10 µM | relative to: DMSO | log2 fold change | -0.08
C=CC(=O)N1[C@H](c2ccc3c(c2)OCO3)c2[nH]c3ccccc3c2C[C@@H]1C(=O)N1CCN(C)CC1 | human cyclin E1 N112C-3xFLAG:CDK2 | co-IP with TMT proteomics, refers to: PRDX1 | – | concentration not given, Q06830 | relative to: wild type DMSO | relative co-enrichment | 101%
COC1OC(C)C(OS(=O)(=O)O)C(OC2OC(C)C(OS(=O)(=O)O)C(OC3OC(C)C(OS(=O)(=O)O)C(OC4OC(C)C(OS(=O)(=O)O)C(OC5OC(C)C(OS(=O)(=O)O)C(OC6OC(C)C(OS(=O)(=O)O)C(OC7OC(C)C(OS(=O)(=O)O)C(OC8OC(C)C(OS(=O)(=O)O)C(OC9OC(C)C(OS(=O)(=O)O)C(OS(=O)(=O)O)C9O)C8O)C7O)C6O)C5O)C4O)C3O)C2O)C1O (stereo not shown) | – | – | human plasma | 128 µg/mL | – | thrombin time | 9.2 s
CCN(CC)CC(=O)Nc1cccc(-n2cc(-c3ccc4ccc(-c5cn(-c6cccc(NC(=O)CN(CC)CC)c6)nn5)cc4c3)nn2)c1 | RCC4 | PCR angiogenesis array, refers to: CCL11 | – | 5 x IC50, 4 h, normoxia | relative to: untreated | fold regulation | -1.29
COc1ccccc1-c1ccncc1C(=O)Nc1nnc(OCc2ccc(Cl)cc2)s1 | PEO1 BRCA2-mutant ovarian cancer | – | – | 1.00 µM, with: olaparib 0.25 µM | – | colony survival | 0%
CNS(=O)(=O)Nc1nccc(Cc2c(C)c3ccc(Oc4ncccc4F)cc3oc2=O)c1F | SK-MEL3 | cell viability | – | 7 days | – | IC50 | 5.81 nM

Repeated from above:
SMILES | tested on | assay | system | setting | how to read | measurement | value
COc1cc(O)ccc1CCC(c1ccc(O)cc1)c1cc2c(c(C)c1O)OC(c1ccc(O)cc1)CC2 (mixture of isomers) | – | refers to: 15-HEPE | human whole blood | 0.3 µM, with: Escherichia coli | – | amount | 169 ± 71 pg/mL blood
C=CC(=O)N1[C@H](c2ccc3c(c2)OCO3)c2[nH]c3ccccc3c2C[C@@H]1C(=O)N1CCN(C)CC1 | human cyclin E1 N112C-3xFLAG:CDK2 | co-IP with TMT proteomics, refers to: PRDX1 | – | concentration not given, Q06830 | relative to: wild type DMSO | relative co-enrichment | 101%
COC1CN([C@H]2CC[C@H]([C@@]3(C)Oc4c(Cl)cc(C(=O)NCc5c(SC)cc(C)[nH]c5=O)c(C)c4O3)CC2)C1 | – | RNA-seq, refers to: MARCHF3 mouse homolog | mouse, HT-1376 xenograft, whole blood | dose not given | relative to: vehicle | log2 fold change | 0.994
